Experimental data collected from several papers.
Numbered parts are unrelated; each lists some results of a single study.
Sequence of UniProt Q9UK32 (whole entry, looked up): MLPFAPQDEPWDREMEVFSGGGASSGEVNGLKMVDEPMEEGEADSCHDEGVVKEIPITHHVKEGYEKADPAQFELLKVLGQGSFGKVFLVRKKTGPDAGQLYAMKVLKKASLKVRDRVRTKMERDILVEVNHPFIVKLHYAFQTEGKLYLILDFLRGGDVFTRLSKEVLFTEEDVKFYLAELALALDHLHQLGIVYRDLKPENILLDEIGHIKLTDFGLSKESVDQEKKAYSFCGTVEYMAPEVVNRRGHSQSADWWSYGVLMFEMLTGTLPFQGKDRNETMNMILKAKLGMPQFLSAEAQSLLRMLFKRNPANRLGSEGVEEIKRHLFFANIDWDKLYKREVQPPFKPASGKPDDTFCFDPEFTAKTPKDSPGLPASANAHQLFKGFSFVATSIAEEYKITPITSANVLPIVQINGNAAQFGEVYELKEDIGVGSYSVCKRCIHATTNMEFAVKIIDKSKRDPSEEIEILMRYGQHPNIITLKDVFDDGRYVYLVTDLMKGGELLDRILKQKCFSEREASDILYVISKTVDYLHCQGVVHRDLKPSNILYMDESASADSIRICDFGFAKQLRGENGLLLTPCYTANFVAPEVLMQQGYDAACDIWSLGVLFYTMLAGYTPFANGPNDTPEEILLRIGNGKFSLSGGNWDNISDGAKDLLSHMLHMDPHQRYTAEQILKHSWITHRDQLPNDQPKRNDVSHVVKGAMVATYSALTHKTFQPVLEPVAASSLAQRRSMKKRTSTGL
Sequence of UniProt P51812 (whole entry, looked up): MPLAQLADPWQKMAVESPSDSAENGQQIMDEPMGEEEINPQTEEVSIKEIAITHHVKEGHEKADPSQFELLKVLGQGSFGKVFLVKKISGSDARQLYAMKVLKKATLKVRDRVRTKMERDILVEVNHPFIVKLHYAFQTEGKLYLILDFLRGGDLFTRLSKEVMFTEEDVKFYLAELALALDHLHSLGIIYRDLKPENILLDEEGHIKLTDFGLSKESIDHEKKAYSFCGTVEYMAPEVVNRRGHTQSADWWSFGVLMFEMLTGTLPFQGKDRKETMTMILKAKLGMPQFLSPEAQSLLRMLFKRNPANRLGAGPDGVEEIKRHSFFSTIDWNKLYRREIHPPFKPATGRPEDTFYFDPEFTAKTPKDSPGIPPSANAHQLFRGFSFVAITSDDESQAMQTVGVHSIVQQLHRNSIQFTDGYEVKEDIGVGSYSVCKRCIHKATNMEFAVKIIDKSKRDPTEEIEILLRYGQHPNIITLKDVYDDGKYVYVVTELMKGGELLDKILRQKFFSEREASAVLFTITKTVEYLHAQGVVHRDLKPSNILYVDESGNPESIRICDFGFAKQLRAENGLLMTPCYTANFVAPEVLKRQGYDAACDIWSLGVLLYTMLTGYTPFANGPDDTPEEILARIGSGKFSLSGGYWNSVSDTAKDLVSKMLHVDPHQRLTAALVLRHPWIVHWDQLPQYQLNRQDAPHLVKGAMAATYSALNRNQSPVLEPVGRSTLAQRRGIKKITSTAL
Sequence of UniProt Q8WXR4 (whole entry, looked up): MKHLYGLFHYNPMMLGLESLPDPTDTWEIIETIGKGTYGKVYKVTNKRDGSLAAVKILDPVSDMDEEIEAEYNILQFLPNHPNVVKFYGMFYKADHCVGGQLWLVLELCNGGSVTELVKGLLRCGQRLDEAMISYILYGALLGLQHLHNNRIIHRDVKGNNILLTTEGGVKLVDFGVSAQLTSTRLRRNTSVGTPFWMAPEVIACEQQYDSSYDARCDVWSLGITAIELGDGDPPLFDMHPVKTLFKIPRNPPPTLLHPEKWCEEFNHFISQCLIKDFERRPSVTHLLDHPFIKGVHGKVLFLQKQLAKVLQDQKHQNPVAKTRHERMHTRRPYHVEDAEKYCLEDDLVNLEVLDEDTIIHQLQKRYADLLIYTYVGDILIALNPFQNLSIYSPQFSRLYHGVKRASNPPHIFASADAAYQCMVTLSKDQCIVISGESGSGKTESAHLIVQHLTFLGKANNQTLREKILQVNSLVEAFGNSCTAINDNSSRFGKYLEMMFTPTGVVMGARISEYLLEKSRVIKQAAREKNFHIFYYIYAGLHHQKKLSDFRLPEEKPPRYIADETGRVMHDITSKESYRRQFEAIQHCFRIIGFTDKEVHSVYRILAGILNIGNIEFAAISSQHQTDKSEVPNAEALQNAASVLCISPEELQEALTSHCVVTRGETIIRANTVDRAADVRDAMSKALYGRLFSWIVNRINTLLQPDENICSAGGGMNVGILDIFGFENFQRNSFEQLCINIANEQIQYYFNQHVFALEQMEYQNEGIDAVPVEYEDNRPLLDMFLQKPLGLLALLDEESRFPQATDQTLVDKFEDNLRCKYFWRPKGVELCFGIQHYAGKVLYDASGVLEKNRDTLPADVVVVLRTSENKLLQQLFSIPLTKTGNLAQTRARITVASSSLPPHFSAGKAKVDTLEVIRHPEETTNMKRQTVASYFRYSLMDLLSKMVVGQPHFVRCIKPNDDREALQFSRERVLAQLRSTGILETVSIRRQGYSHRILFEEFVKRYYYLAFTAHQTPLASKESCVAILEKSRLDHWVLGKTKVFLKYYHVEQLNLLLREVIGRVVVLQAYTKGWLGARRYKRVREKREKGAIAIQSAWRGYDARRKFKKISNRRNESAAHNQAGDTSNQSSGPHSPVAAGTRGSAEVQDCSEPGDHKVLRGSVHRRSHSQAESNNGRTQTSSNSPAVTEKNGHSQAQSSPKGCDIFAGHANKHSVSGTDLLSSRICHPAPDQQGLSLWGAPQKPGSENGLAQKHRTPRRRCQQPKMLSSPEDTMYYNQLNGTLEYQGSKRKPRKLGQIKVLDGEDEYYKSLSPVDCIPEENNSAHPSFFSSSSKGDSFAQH

Study 1
Target: Ribosomal protein S6 kinase beta-2 (RPS6KB2, Homo sapiens, UniProt Q9UBS0)
Sequence of UniProt Q9UBS0 (whole entry, looked up): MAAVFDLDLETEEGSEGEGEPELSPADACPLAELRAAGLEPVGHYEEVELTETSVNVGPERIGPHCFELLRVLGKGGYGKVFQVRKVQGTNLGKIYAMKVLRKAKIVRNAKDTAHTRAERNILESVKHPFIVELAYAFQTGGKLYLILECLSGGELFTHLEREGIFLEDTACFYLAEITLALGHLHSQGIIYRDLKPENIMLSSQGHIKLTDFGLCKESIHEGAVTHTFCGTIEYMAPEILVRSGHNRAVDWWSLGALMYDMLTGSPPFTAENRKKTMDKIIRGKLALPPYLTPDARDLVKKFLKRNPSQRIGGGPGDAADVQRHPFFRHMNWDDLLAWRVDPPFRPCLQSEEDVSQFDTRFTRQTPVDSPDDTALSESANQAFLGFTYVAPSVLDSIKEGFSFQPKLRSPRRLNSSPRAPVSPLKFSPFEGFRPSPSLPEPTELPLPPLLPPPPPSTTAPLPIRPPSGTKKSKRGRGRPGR
Read-out: enzyme activity
Mode: inhibitor
Tested at: 0.5 µM
Baseline: control
Measurement: remaining activity
Cc1nc(-c2ccccc2)c(-c2ccncc2)o1: 96%
CO[C@H]1C[C@@H]2CC[C@@H](C)[C@@](O)(O2)C(=O)C(=O)N2CCCC[C@H]2C(=O)O[C@H]([C@H](C)C[C@@H]2CC[C@@H](O)[C@H](OC)C2)CC(=O)[C@H](C)/C=C(\C)[C@@H](O)[C@@H](OC)C(=O)[C@H](C)C[C@H](C)/C=C/C=C/C=C/1C: 95.4%
NCCNc1ncc(C(N)=O)c(Nc2cccc(C(F)(F)F)c2)n1: 86.7%
Cc1ccc(NC(=O)c2ccc(CN3CCN(C)CC3)cc2)cc1Nc1nc(-c2cccnc2)cs1: 101%
CC(C)[C@H](CO)Nc1nc(Nc2cc(N)cc(Cl)c2)c2ncn(C(C)C)c2n1: 98.2%
OCC(O)CCON=C1C(c2c(O)[nH]c3ccccc23)=Nc2ccccc21 (stereo not shown): 106%
O=C1NC(=O)C(c2cn(CCCO)c3ncccc23)=C1c1cnccn1: 94.7%
Cn1c2ccccc2c2c3c(c4c5ccccc5n(CCC#N)c4c21)CNC3=O: 21.6%
Oc1ccc(-c2nc(-c3ccncc3)c(-c3ccc(F)cc3)[nH]2)cc1: 91.4%
O=C1NC(=O)C(c2cn(CCCn3ccnc3)c3ccccc23)=C1Nc1ccccc1: 86.1%
COc1cc2ncnc(Nc3ccc(Oc4ccccc4)cc3)c2cc1OC: 97.4%
COc1ccc(CNC(=O)Nc2ncc([N+](=O)[O-])s2)cc1: 93.6%
CN(C)c1ccc(C=C2C(=O)Nc3ccccc32)cc1: 101%
O=C(CCCc1ccc(-c2ccccc2F)cc1)Nc1ccc(O)cc1: 104%
C#Cc1cccc(Nc2ncnc3cc(OCCOC)c(OCCOC)cc23)c1: 103%
O=c1c2ccccc2[nH]c(=S)n1CCN1CCC(=C(c2ccc(F)cc2)c2ccc(F)cc2)CC1: 102%

Study 2
Target: Calcium/calmodulin-dependent protein kinase type II subunit alpha (CAMK2A, Homo sapiens, UniProt Q9UQM7)
Sequence of UniProt Q9UQM7 (whole entry, looked up): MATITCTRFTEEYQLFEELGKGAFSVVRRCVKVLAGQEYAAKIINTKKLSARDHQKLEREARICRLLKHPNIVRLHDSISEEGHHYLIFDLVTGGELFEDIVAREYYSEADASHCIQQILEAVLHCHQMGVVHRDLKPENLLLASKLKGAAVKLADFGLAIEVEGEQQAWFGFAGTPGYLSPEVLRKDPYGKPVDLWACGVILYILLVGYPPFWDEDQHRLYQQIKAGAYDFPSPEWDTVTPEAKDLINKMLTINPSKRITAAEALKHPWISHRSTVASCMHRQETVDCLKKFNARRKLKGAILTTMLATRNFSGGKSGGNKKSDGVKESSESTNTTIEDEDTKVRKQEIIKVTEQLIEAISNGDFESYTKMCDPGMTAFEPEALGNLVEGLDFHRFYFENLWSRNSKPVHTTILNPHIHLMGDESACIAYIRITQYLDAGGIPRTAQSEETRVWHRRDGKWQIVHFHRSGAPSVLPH
Read-out: enzyme activity
Mode: inhibitor
Tested at: 10 µM
Measurement: inhibition
CN(C)[C@@H](CCOc1cccc2ccccc12)c1ccccc1: -5%
CCCCCCCCCCCCC/C=C/[C@@H](O)[C@@H](N)COP(=O)(O)O: 12%
O[C@H]1[C@H](O)[C@@H](O)[C@H](O)[C@@H](O)[C@H]1O: 3%
CCCN1C[C@H](C)[C@@H](O)[C@](C)(O)[C@@H](CC)OC(=O)[C@H](C)[C@@H](O[C@H]2C[C@@](C)(OC)[C@@H](O)[C@H](C)O2)[C@H](C)[C@@H](O[C@@H]2O[C@H](C)C[C@H](N(C)C)[C@H]2O)[C@](C)(O)C[C@H]1C: -2%

Study 3
Read-out: AlphaScreen signal
Method: AlphaScreen counter screen
Sample: His6 peptide without bromodomain
Tested at: 50 µM
Setting: assay interference check
Measurement: inhibition
Cc1ccc(NS(=O)(=O)c2cc(C(=O)O)c(Cl)cc2Cl)c(O)c1: 15.7%
COc1cc(O)c2c(c1)oc(=O)c1c3cc(O)c(O)cc3oc21: 13.9%
COc1cc2nccc(Oc3ccc(NC(=O)Nc4cc(C)on4)c(Cl)c3)c2cc1OC: 34.2%
CC(C)(C)OC(=O)N1CCc2nc(Nc3ccc(F)cc3)ncc2C1: 8.95%
O=C1NCCCc2c1oc1ccc(O)cc21: 18.4%

Study 4
SMILES: CCCCN(CCCC)C(=O)CN1C[C@H](c2cc(OC)c3c(c2)OCO3)[C@@H](C(=O)O)[C@@H]1CC(C)(C)CCC
Method: competition with immobilised ligand
Tested at: 1 µM
Measurement: remaining binding
Ribosomal protein S6 kinase alpha-3, C-terminal kinase domain (RPS6KA3, Homo sapiens, UniProt P51812); cell-free assay: 54.9%
Myosin-IIIb (MYO3B, Homo sapiens, UniProt Q8WXR4); binding: 88.6%
Ribosomal protein S6 kinase alpha-6, C-terminal kinase domain (RPS6KA6, Homo sapiens, UniProt Q9UK32); cell-free assay: 100%

Study 5
Host: mouse
Sample: microsomes or S9
Tested at: 2 µM
Time: 0.5 h
Measurement: remaining compound
COc1ccc(S(=O)(=O)[C@H]2CS(=O)(=O)C[C@@H]2NCc2ccc3c(c2)OCO3)cc1C: 3.49%
CC(C)(C)c1n[nH]c(C2CN(C(=O)C3CCOC3)CCO2)n1 (stereo not shown): > 100%
NS(=O)(=O)c1ccc(CCNS(=O)(=O)Cc2ccccc2Cl)cc1: 86.9%
Cc1cc(C)c(N(C)S(=O)(=O)c2ccc3c(c2)C(=O)Nc2ccc(C)cc2O3)c(C)c1: 98.5%
O=c1c2cnn(-c3ccc(F)cc3)c2ncn1Cc1cccnc1: 95.2%
CCC(Oc1ccccc1C)C(=O)Nc1ccccc1C(=O)NC (stereo not shown): 2.66%

Some of these lines once more (study 1):
COc1cc2ncnc(Nc3ccc(Oc4ccccc4)cc3)c2cc1OC: 97.4%
CO[C@H]1C[C@@H]2CC[C@@H](C)[C@@](O)(O2)C(=O)C(=O)N2CCCC[C@H]2C(=O)O[C@H]([C@H](C)C[C@@H]2CC[C@@H](O)[C@H](OC)C2)CC(=O)[C@H](C)/C=C(\C)[C@@H](O)[C@@H](OC)C(=O)[C@H](C)C[C@H](C)/C=C/C=C/C=C/1C: 95.4%
Cn1c2ccccc2c2c3c(c4c5ccccc5n(CCC#N)c4c21)CNC3=O: 21.6%
Cc1ccc(NC(=O)c2ccc(CN3CCN(C)CC3)cc2)cc1Nc1nc(-c2cccnc2)cs1: 101%
